Measurements pooled from the literature.
A part holds a random share of what one study measured. Changes are numbered by the printed parent chain.

Sample 1 — technique: competition protein-binding microarray; form: double-stranded DNA, one strand shown; sample: in vitro; concentration: 2 µM; together with: Pho4 competitor, 0.05 µM; direction: higher = stronger binding; quantity: fluorescence intensity
Target: Centromere-binding protein 1, full length, His-tagged (CBF1, Saccharomyces cerevisiae, UniProt P17106, residues 1-351)
Sequence of UniProt P17106 (whole entry, looked up): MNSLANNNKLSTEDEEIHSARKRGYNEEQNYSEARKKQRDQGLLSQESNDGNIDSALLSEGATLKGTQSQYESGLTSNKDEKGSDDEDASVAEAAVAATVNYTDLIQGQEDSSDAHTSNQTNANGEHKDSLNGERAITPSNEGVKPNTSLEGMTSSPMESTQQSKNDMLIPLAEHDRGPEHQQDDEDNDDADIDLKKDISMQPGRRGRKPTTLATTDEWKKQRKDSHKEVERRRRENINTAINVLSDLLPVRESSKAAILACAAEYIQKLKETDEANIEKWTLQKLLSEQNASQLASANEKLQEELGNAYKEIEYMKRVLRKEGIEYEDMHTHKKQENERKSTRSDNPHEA
Setting: whole 60-bp probe, lowest competitor level
CTTCTGTAAATTTGTCACGACACTTGACGCGCCCCGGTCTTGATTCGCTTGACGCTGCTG: 252 a.u.
CACAAGGCCCAATCAATGGTGGTATCGAAGTTACATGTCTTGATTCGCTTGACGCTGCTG: 81 a.u.
CTTTCCCGATCTTGACTTGTGGGTGTAGCACATTTGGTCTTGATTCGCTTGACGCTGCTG: 77.5 a.u.
AAATTACTAAGTTTTCACGTGTATTACCCCGTATGAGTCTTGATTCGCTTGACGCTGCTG: 724 a.u.
CTAAGCATATATCCTCACGTGACTCGGGCCACAGACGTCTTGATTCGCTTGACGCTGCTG: 7760 a.u.
CGGGGTTAAGTTTTTCACGTGGGTTGCTTGCAGCAGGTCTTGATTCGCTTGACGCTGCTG: 565 a.u.
TGTGAGGAACAAGCCCACATGTTGAGTTTAAGATGGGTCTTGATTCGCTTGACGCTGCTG: 106 a.u.
AATGTACAATTTTACCAGGCGTGGAACCTGGACCGGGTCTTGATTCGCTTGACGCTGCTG: 51.8 a.u.
TCTTTACCTTTGTTCCACGTGTCGGTCCGTACAATTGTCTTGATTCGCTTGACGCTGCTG: 668 a.u.
GGAATTGGTTCACTGATTGAAAGTGATTTTGAGAGGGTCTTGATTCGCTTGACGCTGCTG: 89.8 a.u.
AAATTACTAAGTTGTCACTCCACTTACCCCGTATGAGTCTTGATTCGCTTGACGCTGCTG: 74.6 a.u.
TTACCGACGAGGCTTACCGTGATTGCTCTCCAGTAGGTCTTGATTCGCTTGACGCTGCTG: 66.1 a.u.
AAATTACTAAGTTGTCACTTTACTTACCCCGTATGAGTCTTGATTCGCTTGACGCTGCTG: 85.6 a.u.
AGTATCCTCGACCTACACGTCTTCACCATCGGCTTCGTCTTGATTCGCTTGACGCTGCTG: 61.6 a.u.
TAGGCAGAGTGCTGGCACGATGATAGCGAGGGGTTGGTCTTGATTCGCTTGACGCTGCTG: 68.9 a.u.
TGGACGTCAAGATTCTCCGTGACTCGGGCTCTTTTCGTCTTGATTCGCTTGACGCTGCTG: 70.1 a.u.

Sample 2 — target: CCNA1, cyclin fold, Cln2 fusion (human); technique: yeast growth competition, sequencing; sample: yeast; setting: weak parent motif; baseline: not given; direction: higher = stronger binding; quantity: normalised enrichment score
Parent: CDKN1B docking peptide (human); PSACRNLFGPVDH; partner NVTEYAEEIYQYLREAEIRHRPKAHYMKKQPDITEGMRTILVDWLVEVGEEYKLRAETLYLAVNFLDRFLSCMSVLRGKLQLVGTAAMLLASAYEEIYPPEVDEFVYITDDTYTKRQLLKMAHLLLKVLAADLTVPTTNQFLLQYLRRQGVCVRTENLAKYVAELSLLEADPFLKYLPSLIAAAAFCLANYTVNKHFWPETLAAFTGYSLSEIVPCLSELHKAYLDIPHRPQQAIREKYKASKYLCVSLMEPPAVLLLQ
PSARRNLFGPVDH [C4R]: 0.673
PSACRNLTGPVDH [F8T]: 0.331
PFACRNLFGPVDH [S2F]: 0.226
PSPCRNLFGPVDH [A3P]: 0.0327
PSACRNLFGPVSH [D12S]: 0.174
PSACRNLSGPVDH [F8S]: 0.483
PSACRNHFGPVDH [L7H]: 0.434
PSACRNLFGPVDD [H13D]: 0.315

Sample 3 — technique: DHFR PCA, deep sequencing; sample: yeast; together with: (+)-ABA 17 µM; baseline: wild-type fitted maximum; direction: higher = stronger binding; quantity: relative binding score
Target: ABI1, truncated, D143A, DHFR fusion (Arabidopsis thaliana)
Setting: methotrexate growth selection, single substitutions
Parent: PYL1, truncated, DHFR fusion (Arabidopsis thaliana); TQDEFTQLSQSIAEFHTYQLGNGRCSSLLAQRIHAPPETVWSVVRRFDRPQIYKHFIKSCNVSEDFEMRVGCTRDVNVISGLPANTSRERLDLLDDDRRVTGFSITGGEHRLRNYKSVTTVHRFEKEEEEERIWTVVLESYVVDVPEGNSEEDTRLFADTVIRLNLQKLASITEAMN
Y18T: 60.6%
V145H: -4.77%
N61K: 90.5%
C60K: -11.9%
A170S: 65.7%
H122A: 13.3%
P50V: 1.38%
R99S: 20.7%
Y18A: 60.3%
T1M: 83.9%
S104M: 8.07%
M176N: 72.3%
D96Y: 11.1%

Sample 4 — technique: protein binding microarray; form: double-stranded DNA, one strand shown; sample: in vitro; concentration: not given; baseline: not given; direction: higher = stronger binding; quantity: E-score
Target: Histone acetyltransferase KAT6A, winged helix 1, GST fusion (KAT6A, Homo sapiens, UniProt Q92794, residues 1-85)
Setting: 8-mer, flanks averaged, mean of 2 arrays, mostly near background
Construct (chain): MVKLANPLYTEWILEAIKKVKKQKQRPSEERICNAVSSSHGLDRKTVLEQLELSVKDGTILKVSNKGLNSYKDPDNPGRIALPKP
CAGGCGAC: 0.119
GTCGGACA: 0.168
GGCTTACC: 0.155
ACCAGATG: -0.221
AATGTTTG: -0.165
CTAAGGAC: -0.0205
CAGGCGCC: 0.177
ATAGGAAC: -0.149
CATCCACG: 0.0159
TATTTCCA: -0.195
ACACGATA: -0.123
TTAAAAAA: -0.216
CGAACCCC: 0.0682
AAACGCGG: 0.294
ATCTTCGG: -0.0839
AGCATCAA: -0.183
CGTCTCAC: 0.0307
ATGAAGCA: -0.291
ACTGAGGA: -0.112

Sample 5 — technique: universal PBM; form: double-stranded DNA, one strand shown; sample: in vitro; concentration: 600 nM; direction: higher = stronger binding; quantity: E-score
Target: Sal-like protein 4, full length isoform A (SALL4, Homo sapiens, UniProt Q9UJQ4, residues 1-1053)
Sequence of UniProt Q9UJQ4 (whole entry, looked up): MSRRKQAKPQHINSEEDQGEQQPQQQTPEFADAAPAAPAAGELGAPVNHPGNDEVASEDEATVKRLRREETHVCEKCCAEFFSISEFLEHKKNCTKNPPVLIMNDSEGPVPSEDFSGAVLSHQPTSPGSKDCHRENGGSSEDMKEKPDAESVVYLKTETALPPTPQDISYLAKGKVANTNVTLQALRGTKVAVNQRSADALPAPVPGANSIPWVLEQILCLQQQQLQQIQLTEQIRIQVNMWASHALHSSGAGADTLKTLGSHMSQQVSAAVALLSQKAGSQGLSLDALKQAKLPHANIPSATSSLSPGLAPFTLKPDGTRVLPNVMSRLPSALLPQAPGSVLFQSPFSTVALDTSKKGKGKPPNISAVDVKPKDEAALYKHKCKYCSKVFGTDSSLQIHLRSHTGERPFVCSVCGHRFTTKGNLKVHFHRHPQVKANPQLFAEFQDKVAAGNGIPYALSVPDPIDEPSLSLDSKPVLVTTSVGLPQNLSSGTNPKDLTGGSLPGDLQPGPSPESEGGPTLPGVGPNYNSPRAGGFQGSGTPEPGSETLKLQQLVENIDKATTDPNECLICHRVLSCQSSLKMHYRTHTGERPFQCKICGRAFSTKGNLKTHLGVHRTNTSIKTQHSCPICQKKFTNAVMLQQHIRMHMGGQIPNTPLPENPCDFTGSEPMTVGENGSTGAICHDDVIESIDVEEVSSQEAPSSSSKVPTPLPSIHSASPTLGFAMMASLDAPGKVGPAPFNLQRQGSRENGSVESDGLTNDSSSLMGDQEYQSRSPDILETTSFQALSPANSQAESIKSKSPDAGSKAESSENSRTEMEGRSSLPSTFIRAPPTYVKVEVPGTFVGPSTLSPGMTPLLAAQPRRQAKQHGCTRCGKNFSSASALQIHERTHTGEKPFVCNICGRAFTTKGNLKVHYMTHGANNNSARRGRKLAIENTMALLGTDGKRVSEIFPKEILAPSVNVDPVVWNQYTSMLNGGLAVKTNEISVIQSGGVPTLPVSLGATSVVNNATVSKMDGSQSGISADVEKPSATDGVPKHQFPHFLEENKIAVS
Setting: 8-mer, flanks averaged, mean of replicates
CGTACCTA: -0.192
GTCACAAC: -0.0174
CCCACACG: -0.147
GGCTGCAA: 0.0111
AAGACGGT: -0.0834
ATTGGTAG: 0.261
GGCCTATA: 0.0575
ACTAAGAA: 0.0688
AGGCCACG: -0.285
AATTCTTG: 0.208
CAGTCTAA: 0.147
ACTGATCT: 0.0808
AGCGTCTA: -0.0534
ACAGGTCG: -0.131

Sample 6 — target: UBE2Q2 UBC core domain (UniProt Q8WVN8); technique: yeast two-hybrid; sample: yeast; setting: mostly zero background; baseline: not given; direction: higher = stronger interaction; quantity: lacZ reporter activity
Sequence of UniProt Q8WVN8 (whole entry, looked up): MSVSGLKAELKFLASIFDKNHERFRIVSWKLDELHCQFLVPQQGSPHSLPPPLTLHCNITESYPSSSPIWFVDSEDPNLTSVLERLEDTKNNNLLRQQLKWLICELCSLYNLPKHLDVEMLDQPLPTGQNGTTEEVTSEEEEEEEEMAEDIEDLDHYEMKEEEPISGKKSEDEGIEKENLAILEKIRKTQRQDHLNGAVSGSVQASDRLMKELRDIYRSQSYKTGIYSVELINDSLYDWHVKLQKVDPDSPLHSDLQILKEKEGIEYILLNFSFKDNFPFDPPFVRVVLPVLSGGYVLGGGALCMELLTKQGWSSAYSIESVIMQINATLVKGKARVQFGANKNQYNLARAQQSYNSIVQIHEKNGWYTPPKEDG
B1: MSL2 RING domain (UniProt Q9HCI7); chain LLPYFRQSLSCCVCGHLLQDPIAPTNSTCQHYVCKTCKGKKMMMKPSCSWCKDYEQFEENKQ
B2: TRIM52 RING domain (UniProt Q96A61); chain PMQTLQEEAVCAICLDYFKDPVSISCGHNFCRGCVTQLWSKEDEEDQNEEEDEWEEEEDEEAV
B3: RNF32 RING domain (UniProt Q9H0A6); chain SLLQGDSVQPCPICKEEFELRPQVLLSCSHVFHKACLQAFEKFTNKKTCPLCRKNQYQTRVIH
B4: RNF5 RING domain (UniProt Q99942); chain ERGGAGATFECNICLETAREAVVSVCGHLYCWPCLHQWLETRPERQECPVCKAGISREKVVP
B5: UBE4A RING domain (UniProt Q14139); chain LQQQEEETYADACDEFLDPIMSTLMCDPVVLPSSRVTVDRSTIARHLLSDQTDPFNRSPLTMDQIRPNTELKEKIQRWLAERKQQKEQLE
B6: RNF4 RING domain (UniProt P78317); chain TGLRPSGTVSCPICMDGYSEIVQNGRLIVSTECGHVFCSQCLRDSLKNANTCPTCRKKINHKRYHP
B7: TRIM10 RING domain (UniProt Q9UDY6); chain SVTSLADEVNCPICQGTLREPVTIDCGHNFCRACLTRYCEIPGPDLEESPTCPLCKEPFRPGSFRP
B8: RNF149 RING domain (UniProt Q8NC42); chain EKGIDVDAENCAVCIENFKVKDIIRILPCKHIFHRICIDPWLLDHRTCPMCKLDVIKALGYW
SYEDKSNDFVCPICFDMIEEAYMTKCGHSFCYKCIHQSLEDNNRCPKCNYVVDNIDHLY (COP1 RING domain (UniProt Q8NHY2)): 0
B1 (MSL2 RING domain): 0
B2 (TRIM52 RING domain): 0
QLQDEEDDSLCRICMDAVIDCVLLECGHMVTCTKCGKRMSECPICRQYVVRAVHVF (RNF34 RING domain (UniProt Q969K3)): 0
B3 (RNF32 RING domain): 0
B4 (RNF5 RING domain): 0
B5 (UBE4A RING domain): 0
KIKDLNEHIVCCLCAGYFVDATTITECLHTFCKSCIVKYLQTSKYCPMCNIKIHETQPLL (PCGF1 RING domain (UniProt Q9BSM1)): 0
B6 (RNF4 RING domain): 0
B7 (TRIM10 RING domain): 0
B8 (RNF149 RING domain): 0

Repeated from above (sample 4):
ATGAAGCA: -0.291
TATTTCCA: -0.195
ACTGAGGA: -0.112
CAGGCGAC: 0.119
ATAGGAAC: -0.149
GGCTTACC: 0.155
CATCCACG: 0.0159
ATCTTCGG: -0.0839
CGAACCCC: 0.0682
CGTCTCAC: 0.0307
AATGTTTG: -0.165
ACACGATA: -0.123
